Measured values pooled from the literature.
Compare with care: the assays were run in different laboratories. Values joined by “and” are separate records of one study, mostly repeats; a detail may differ. ± gives the spread as reported.
Genome polyprotein NS3 helicase domain: Genome polyprotein, NS3 helicase domain (Hepatitis C virus genotype 1b, UniProt Q9WMX2)
SRC SH3-SH2-kinase domain: Proto-oncogene tyrosine-protein kinase Src, SH3-SH2-kinase domain (SRC, Gallus gallus, UniProt P00523)
FGFR3: Fibroblast growth factor receptor 3 (FGFR3, Homo sapiens, UniProt P22607)

C=CCC(=N)NCCC[C@H](N)C(=O)O
IC50 (Nitric oxide synthase 3 (Rattus norvegicus, UniProt Q62600); cGMP accumulation; rat aortic rings; 25 min preincubation, added: acetylcholine 10 µM): 0.9 ± 0.1 µM

CN(C)C/C=C/C(=O)Nc1ccc2nc(NCCCCCN(C)C)nc(NCCCCCCN(C)C)c2c1
IC50 (PHD finger protein 1, Tudor-PHD1-PHD2 domains (Homo sapiens, UniProt O43189); methyl-lysine binding, TR-FRET): > 100 µM

CCC(C)NC(=O)Cn1nc(C(F)(F)F)c2c1CCCC2 (stereo not shown)
IC50 (Trypanothione synthetase (Trypanosoma brucei, UniProt Q586P2); enzyme activity, inhibitor): 12 µM

CC(C)CN(CC(=O)NCCCCCCNC(=O)c1ccc(-c2n[nH]c3ccccc23)cc1)C(=O)CNC(=O)C1COc2ccccc2O1 (stereo not shown)
IC50 (MAPK8 (Homo sapiens, UniProt P45983); enzyme activity, inhibitor): 0.164 µM

C/C(=N\Nc1nc(C)cs1)c1ccc2c(c1)sc1nc(=O)c(C#N)cn12
IC50 (DNA gyrase (gyrA/gyrB, Escherichia coli, UniProt P0AES4+P0AES6); enzyme activity, inhibitor): 2.83 µM

Cc1ccc2nc(-c3ccc(N=NNc4ccc(-c5nc6ccc(C)c(S(=O)(=O)O)c6s5)cc4)cc3)sc2c1S(=O)(=O)O
IC50 (Genome polyprotein NS3 helicase domain; DNA binding, fluorescence polarization; added: Cy5-dT15 DNA 5 nM): 2.8 ± 0.2 µM

CN1CC[C@@H](C(=O)O)NC(=O)/C=C\C(=O)N[C@@H](CC2CCCCC2)C(=O)N[C@@H](Cc2ccc(F)cc2)C(=O)N[C@@H](CCCNC(=O)c2cnccn2)C1=O
IC50 (SRC SH3-SH2-kinase domain; enzyme activity, inhibitor, Z'-LYTE FRET; Src residues 83-533, added: 50 µM ATP): ≤ 0.004 µM

Cc1ccccc1-c1cc(N2CCN(CCCN3C(=O)C=CC3=O)CC2)ccc1N(C)C(=O)C(C)(C)c1cc(C(F)(F)F)cc(C(F)(F)F)c1
IC50 (TACR1 (Homo sapiens, UniProt P25103); nuclear ERK activity, antagonist, FRET biosensor; HEK293T; 30 to 90 min preincubation, added: substance P 10 nM): 0.191 µM

CCOc1ccccc1-c1nc(CC(=O)N2CCc3sccc3C2)cs1
IC50 (Trypanothione synthetase (Trypanosoma brucei brucei, UniProt Q586P2); enzyme activity, BIOMOL Green phosphate release; 1 h preincubation): 8 µM and 8.4 µM

COc1ccc([C@@H]2CC(=O)c3c(O)cc(O[C@@H]4O[C@H](CO[C@@H]5O[C@@H](C)[C@H](O)[C@@H](O)[C@H]5O)[C@@H](O)[C@H](O)[C@H]4O)cc3O2)cc1O
IC50 (SLCO1B1 (Homo sapiens, UniProt Q9Y6L6); 8-FcA uptake, inhibitor, flow cytometry; HEK293 expressing SLCO1B1; 10 min, added: 8-FcA 2.5 µM): > 100 µM

Cc1cc([N+](=O)[O-])cn(CC(=O)c2cc3cc(Cl)ccc3[nH]2)c1=O
IC50 (RAD52 (Homo sapiens, UniProt P43351); DNA binding, inhibitor, FRET; 25 °C, added: Cy3-dT30-Cy5 1 nM): 7.97 ± 0.84 µM

CN(C)CCNC(=O)c1cccc2c(NCCCCc3c(N)nc(N)nc3N)c3ccccc3nc12
IC50 (Muscleblind-like protein 1, with (CUG)12 RNA (Homo sapiens, UniProt Q9NR56); MBNL1-RNA binding, gel mobility shift; no tRNA, added: (CUG)12 RNA, 1000 nM MBNL1): 118 ± 40 µM

CCNC(=O)[C@@H]1CCNC(=O)[C@H](CCCNC(=O)c2cnccn2)NC(=O)[C@H](Cc2ccccc2)NC(=O)[C@H](CC2CC2)NC(=O)/C=C\C(=O)N1
IC50 (SRC SH3-SH2-kinase domain; enzyme activity, inhibitor, Z'-LYTE FRET; Src residues 83-533, added: 50 µM ATP): 0.19 ± 0.01 µM

Nc1nc(-c2ccc(Br)cc2)cs1
IC50 (Capsid scaffolding protein, protease domain (Human herpesvirus 8 type P, UniProt Q2HRB6); protease activity, inhibitor; added: fluorogenic peptide substrate): > 500 µM

COP(=O)(OC)OCC1(O)O[C@H](COP(=O)(O)O)[C@@H](O)[C@@H]1O (stereo partly shown)
IC50 (Phosphoglycerate mutase 1 (Homo sapiens, UniProt P18669); enzyme activity, inhibitor): 1080 µM

CN1CCN(C(=O)c2ccc(-c3ccc4c(c3)/C(=C/c3ccc(N5CCNCC5)cc3)C(=O)N4)cc2)CC1
IC50 (FGFR3; enzyme activity, inhibitor): 0.0565 µM

NNc1nc2cc3ccccc3cc2c(=O)n1Cc1ccccc1
IC50 (Genome polyprotein, protease (Hepatitis C virus genotype 1b, UniProt O92972); enzyme activity, inhibitor, FRET): 223 µM

Cc1ccc2nc(-c3ccc4nc(-c5ccc6nc(-c7ccc8nc(-c9ccc(N)cc9)sc8c7)sc6c5)sc4c3)sc2c1S(=O)(=O)O
IC50 (Genome polyprotein NS3 helicase domain; helicase activity, inhibitor, MBHA): 0.9 ± 0.4 µM

Cc1cc(N2CCN(C(=O)CN3CCN(c4ccccc4)CC3)CC2)n2ncnc2n1
IC50 (TOP2A (Homo sapiens, UniProt P11388); enzyme activity, inhibitor): 48.5 µM

CC(NC(=O)Cn1nc(C(F)(F)F)c2c1CCCC2)c1ccccc1 (stereo not shown)
IC50 (Trypanothione synthetase (Trypanosoma brucei, UniProt Q586P2); enzyme activity, inhibitor): 5.6 µM

Cc1cccc2cc(C(=O)N[C@H]3CC[C@H](N)CC3)[nH]c12
IC50 (Histone-lysine N-methyltransferase SETD2, SET domain (SETD2, Homo sapiens, UniProt Q9BYW2); inhibitor): 166 µM

N=C(N)NCCC[C@@H]1NC(=O)[C@H](Cc2c[nH]c3ccccc23)NC(=O)[C@H](CCCNC(=N)N)NC(=O)[C@H](Cc2c[nH]c3ccccc23)NC(=O)[C@H](CCCNC(=N)N)NC(=O)[C@H](Cc2c[nH]c3ccccc23)NC(=O)[C@H](CCCNC(=N)N)NC(=O)[C@H](Cc2c[nH]c3ccccc23)NC(=O)[C@H](CCCNC(=N)N)NC(=O)[C@H](Cc2c[nH]c3ccccc23)NC(=O)[C@H](CCCNC(=N)N)NC(=O)[C@H](Cc2c[nH]c3ccccc23)NC(=O)[C@H](CCCNC(=N)N)NC(=O)[C@H](Cc2c[nH]c3ccccc23)NC(=O)[C@H](CCCNC(=N)N)NC(=O)[C@H](Cc2c[nH]c3ccccc23)NC1=O
IC50 (ABL1 (Homo sapiens, UniProt P00519); enzyme activity, inhibitor, radiometric): 0.41 µM

CCC(NC(=O)C(CC(C)C)NC(=O)CCc1ccccc1)C(=O)C(=O)NCc1cc(F)cc(OC)c1 (stereo not shown)
IC50 (Calpain-2 catalytic subunit (Capn2, Mus musculus, UniProt O08529); enzyme activity, inhibitor; mouse pons-cerebellum membranes; added: calcium 2 mM): 0.113 µM

CC(C)=CCCC1=CCC2C(=O)c3ccccc3C(=O)C2C1 (stereo not shown)
IC50 (DNA topoisomerase IB (Leishmania donovani, UniProt A0A3Q8IHS4+Q8WQM6); DNA relaxation activity, inhibitor; added: supercoiled plasmid DNA): > 100 µM

O=S(=O)(NCc1csc(-c2ccccc2)n1)c1cc(Cl)ccc1Cl
IC50 (Trypanothione synthetase (Trypanosoma brucei, UniProt Q586P2); enzyme activity, inhibitor): 6.3 µM

O=CCCC(=O)O
IC50 (HIF1AN (Homo sapiens, UniProt Q9NWT6); enzyme activity, inhibitor): 4500 µM

Oc1cccc(/C=N/n2c(Cn3nnc4ccccc43)n[nH]c2=S)c1
IC50 (XDH (Bos taurus, UniProt P80457); enzyme activity, inhibitor): 254 µM

C=C(C)C(=O)Nc1ccc(-c2c(-c3ccc(Oc4nccc(C)n4)cc3)c3c(N)ncnc3n2C)cc1
IC50 (FGFR3; Caliper mobility shift; 30 min preincubation, added: 100 µM ATP): 0.53 µM

CCC(CC)[C@H](NC(C)=O)[C@@H]1[C@H](O)[C@@H](C(=O)OCCOC(=O)[C@@H](N)C(C)C)C[C@H]1NC(=N)N
IC50 (SLC15A1 (Homo sapiens, UniProt P46059); transporter uptake, inhibitor): 1340 µM

CCOC(=O)N1CCC(Oc2nc3c(c(=O)n(C)c(=O)n3C)n2Cc2cccc(C)c2)CC1
IC50 (ALDH1B1 (Homo sapiens, UniProt P30837)): > 57 µM

CC(C)NCc1ccc(C[C@@H]2NC(=O)[C@@H](Cc3c[nH]c4ccccc34)NC(=O)[C@H](Cc3ccccc3)NC(=O)[C@@H](NC(=O)[C@H](N)Cc3ccccc3)CSSC[C@@H](C(=O)N[C@H](C(N)=O)[C@@H](C)O)NC(=O)[C@H](Cc3ccc(O)c(I)c3)NC2=O)cc1
IC50 (SSTR1 (Homo sapiens, UniProt P30872); ligand displacement, radioligand; cell membranes): 0.565 µM

CCOC(=O)c1cc2cc(-c3cc(C(=O)NCc4ccc(C(=O)O)cc4)nn3C)ccc2[nH]1
IC50 (MMP1 (Homo sapiens, UniProt P03956); enzyme activity, inhibitor): 0.72 µM

c1ccc2c(Nc3cc(C4CCC4)[nH]n3)nc(Nc3ccc4cn[nH]c4c3)nc2c1
IC50 (ULK1 (Homo sapiens, UniProt O75385); enzyme activity, inhibitor, radiometric): > 0.3 µM

O=C(NCc1ccc([C@@H]2O[C@H](COP(=O)(O)O)[C@@H](O)[C@H]2O)cc1)Nc1ccc(S(=O)(=O)N2CC3CCC(C2)O3)cc1
IC50 (Nampt (Mus musculus, UniProt Q99KQ4); enzyme activity, inhibitor, fluorescence): 4.32 µM

CN1CCc2cc(Nc3ncc(C(F)(F)F)c(NCc4cc[nH]n4)n3)ccc2C1
IC50 (MARK2 (Homo sapiens, UniProt Q7KZI7); enzyme activity, inhibitor, FRET): 0.0337 µM

O=C1NC(=O)/C(=C/c2ccc(C(=O)NC[C@@H]3C[C@@H](SC(c4ccccc4)(c4ccccc4)c4ccccc4)CN3C(=O)c3ccccc3C(=O)c3ccc(F)cc3F)cc2)S1
IC50 (PLA2G4A (Homo sapiens, UniProt P47712); enzyme activity, LC-MS mixed micelle, item: total arachidonic acid released; added: mixed arachidonoyl phospholipids): 1.3 µM

O=C([O][Ti+2][O]C(=O)c1ccc([P+]([Au-][Cl])(c2ccccc2)c2ccccc2)cc1)c1ccc([P+]([Au-][Cl])(c2ccccc2)c2ccccc2)cc1.c1cc[cH-]c1.c1cc[cH-]c1
IC50 (MAPKAPK3 (Homo sapiens, UniProt Q16644); enzyme activity, inhibitor, radiometric): 0.117 µM

O=C(Cc1c(F)cccc1F)Nc1cc(OCc2ccc(Cl)cc2)ccn1
IC50 (Phosphatidylinositol 3,4,5-trisphosphate 5-phosphatase 1, Ptase-C2 domains (INPP5D, Homo sapiens, UniProt Q92835); enzyme activity, inhibitor): 31.9 µM

CN1C(=O)[C@H](CC2CCCCC2)NC(=O)/C=C/C(=O)N[C@H](C(=O)O)CCCNC(=O)[C@H](Cc2ccc([N+](=O)[O-])cc2)NC(=O)[C@@H]1Cc1ccc(F)cc1
IC50 (SRC SH3-SH2-kinase domain; enzyme activity, inhibitor, Z'-LYTE FRET; Src residues 83-533, added: 50 µM ATP): 5 ± 0.3 µM

N#Cc1c(-c2ccc(Cl)cc2)cc(-c2cccs2)nc1SCC(=O)NCC(=O)O
IC50 (KAT2A (Homo sapiens, UniProt Q92830); enzyme activity, inhibitor, radiometric): 9.1 µM

CC1CCC(C(C)C)C(OCC(=O)NC(C)c2ccc(-n3cncn3)cc2)C1 (stereo not shown)
IC50 (Trypanothione synthetase (Trypanosoma brucei brucei, UniProt Q586P2); enzyme activity, BIOMOL Green phosphate release; 1 h preincubation): 28 µM and 28.2 µM

O=S(=O)(Nc1cscn1)c1c(F)cc(NCc2c(F)ccc(F)c2CN2CCC2)cc1F
IC50 (SCN8A (Homo sapiens, UniProt Q9UQD0, R1626A); ion current, inhibitor, patch clamp; R1626A mutant): 33.6 µM

Nc1ncnc2c1c(-c1ccc(Oc3ccccc3)cc1)nn2C1CCCC1
IC50 (Tyrosine-protein kinase HCK, SH3 (HCK, Homo sapiens, UniProt P08631, K245P/K248P); enzyme activity, inhibitor): < 0.001 µM

Excerpt of the above:
CN(C)CCNC(=O)c1cccc2c(NCCCCc3c(N)nc(N)nc3N)c3ccccc3nc12
IC50 (Muscleblind-like protein 1, with (CUG)12 RNA (Homo sapiens, UniProt Q9NR56); MBNL1-RNA binding, gel mobility shift; no tRNA, added: (CUG)12 RNA, 1000 nM MBNL1): 118 ± 40 µM

O=S(=O)(NCc1csc(-c2ccccc2)n1)c1cc(Cl)ccc1Cl
IC50 (Trypanothione synthetase (Trypanosoma brucei, UniProt Q586P2); enzyme activity, inhibitor): 6.3 µM

CC(C)CN(CC(=O)NCCCCCCNC(=O)c1ccc(-c2n[nH]c3ccccc23)cc1)C(=O)CNC(=O)C1COc2ccccc2O1 (stereo not shown)
IC50 (MAPK8 (Homo sapiens, UniProt P45983); enzyme activity, inhibitor): 0.164 µM

Cc1ccc2nc(-c3ccc(N=NNc4ccc(-c5nc6ccc(C)c(S(=O)(=O)O)c6s5)cc4)cc3)sc2c1S(=O)(=O)O
IC50 (Genome polyprotein NS3 helicase domain; DNA binding, fluorescence polarization; added: Cy5-dT15 DNA 5 nM): 2.8 ± 0.2 µM
